Assay results collected from several papers.
Compare with care: the assays were run in different laboratories.
Target: Serine/threonine-protein kinase DCLK1 (DCLK1, Homo sapiens, UniProt O15075)

SMILES = CNS(=O)(=O)Nc1nccc(Cc2c(C)c3ccc(Oc4ncccc4F)cc3oc2=O)c1F; assay = binding, competition with immobilised ligand; conditions = 10 µM; quantity = remaining binding; value = 78%
SMILES = CC(C)=CC1OC(C)(C)C2C=C3C(=O)C(Cl)=CC(O)C3C3C(O)C4OC4C(=O)C132 (stereo not drawn); assay = cell-free assay, competition with immobilised ligand; conditions = 10 µM; quantity = remaining binding; value = 58%
SMILES = NC(=O)[C@@H](O)C[C@H]1CCc2sc3ncnc(O[C@H]4CC[C@H](N5CCOCC5)CC4)c3c21; assay = enzyme activity, inhibitor; conditions = 10 µM; quantity = inhibition; value = 14%
SMILES = Cc1cnc2nc1Nc1cccc(c1)COC/C=C/COCc1cc(ccc1OCCN1CCOCC1)N2; assay = cell-free assay; conditions = 0.1 µM; quantity = remaining signal; value = 95%
SMILES = COc1ccc(NC(=O)Nc2ccc3c(c2)C(=O)N(C(C)CO)CC(C)C(CN(C)Cc2ccc4c(c2)OCO4)O3)cc1 (stereo not drawn); assay = binding, competition with immobilised ligand; conditions = 10 µM; quantity = remaining binding; value = 37%
SMILES = CN1CCN(Cc2ccc(NC(=O)c3cccc(C#Cc4cnc(N)c5ncccc45)c3)cc2C(F)(F)F)CC1; assay = cell-free assay, competition with immobilised ligand; conditions = 50 nM; quantity = remaining binding; value = 63%
SMILES = CNC1C[S+]2CC[S+]3CC[S+](C1)[Ru-4]321([N]=C=S)[n]2c3ccc(OC)cc3c3c4c(c5cc(F)c[n+]1c5c32)C(=O)NC4=O (stereo not drawn); assay = KinomeScan; conditions = 0.1 µM; scale = relative to: untreated; quantity = remaining binding; value = 52%
SMILES = O=C(Cc1ccc(OCc2ccccc2)cc1)NC1(C(=O)O)CCN(C(=O)c2ccc(-c3cccc(Cl)c3)cc2)CC1; assay = enzyme activity, inhibitor; conditions = 10 µM; quantity = activity vs control; value = 109%
SMILES = COc1cc(Nc2nc(C)cc(-c3cnn4nc(OC)ccc34)n2)cc(C(F)(F)F)c1; assay = inhibitor; conditions = 1 µM, DCAMKL1; scale = relative to: control; quantity = remaining activity; value = 69%
SMILES = CN1CCN(Cc2ccc(-c3ccc(CO[C@H]4CCC[C@@H]4NC(=O)c4cc(-c5cnn(C)c5)cnc4N)cc3)cc2)CC1; assay = enzyme activity, inhibitor; conditions = 0.1 µM; quantity = inhibition; value = 9%
SMILES = C=CC(=O)N1Cc2nc(-c3cc(-c4cc(Cl)cnc4Cl)c(F)cc3F)n(-c3ccncn3)c2C1; assay = cell-free assay, inhibitor; conditions = 1 µM; quantity = inhibition; value = -1.6%
SMILES = COc1c(Cl)cccc1Nc1c(-c2ccncc2C#C[C@@]2(C)CCCN2C(=O)/C=C/CN(C)C)[nH]c2c1C(=O)NCC2; assay = binding, competition with immobilised ligand; conditions = 3 µM; quantity = remaining binding; value = 91%
